Measurements gathered from unrelated publications.
Each line is one published result; not all experiments were run side by side. Several values in a cell are separate wells, animals, samples, runs or records. ± marks the error that the study gave.
T1: itself; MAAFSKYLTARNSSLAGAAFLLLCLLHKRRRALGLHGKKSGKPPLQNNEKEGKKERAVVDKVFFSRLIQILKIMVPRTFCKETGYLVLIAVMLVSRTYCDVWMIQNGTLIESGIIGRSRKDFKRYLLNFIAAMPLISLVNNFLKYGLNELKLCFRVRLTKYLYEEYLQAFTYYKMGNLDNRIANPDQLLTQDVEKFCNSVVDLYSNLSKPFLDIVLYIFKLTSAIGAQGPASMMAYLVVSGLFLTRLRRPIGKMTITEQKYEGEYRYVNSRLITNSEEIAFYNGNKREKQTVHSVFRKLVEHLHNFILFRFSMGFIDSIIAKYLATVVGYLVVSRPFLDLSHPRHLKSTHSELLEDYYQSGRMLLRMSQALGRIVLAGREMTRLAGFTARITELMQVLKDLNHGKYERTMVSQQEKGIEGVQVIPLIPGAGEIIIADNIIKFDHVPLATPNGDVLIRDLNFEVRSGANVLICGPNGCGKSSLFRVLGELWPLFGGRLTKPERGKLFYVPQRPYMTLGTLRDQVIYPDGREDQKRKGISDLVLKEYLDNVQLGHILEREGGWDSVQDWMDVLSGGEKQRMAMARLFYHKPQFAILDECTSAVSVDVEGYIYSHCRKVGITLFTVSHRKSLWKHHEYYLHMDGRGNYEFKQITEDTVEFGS
T2: itself; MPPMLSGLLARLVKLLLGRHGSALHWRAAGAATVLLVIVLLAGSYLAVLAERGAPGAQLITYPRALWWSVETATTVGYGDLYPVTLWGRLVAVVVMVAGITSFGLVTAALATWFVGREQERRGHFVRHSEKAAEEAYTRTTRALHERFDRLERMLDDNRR
T3: itself; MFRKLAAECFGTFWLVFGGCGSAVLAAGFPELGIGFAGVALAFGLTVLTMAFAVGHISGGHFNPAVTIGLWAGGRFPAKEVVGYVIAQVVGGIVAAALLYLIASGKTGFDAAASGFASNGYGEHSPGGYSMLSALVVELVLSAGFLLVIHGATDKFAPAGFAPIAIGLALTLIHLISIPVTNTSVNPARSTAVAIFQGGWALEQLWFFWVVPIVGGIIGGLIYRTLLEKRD
T4: itself; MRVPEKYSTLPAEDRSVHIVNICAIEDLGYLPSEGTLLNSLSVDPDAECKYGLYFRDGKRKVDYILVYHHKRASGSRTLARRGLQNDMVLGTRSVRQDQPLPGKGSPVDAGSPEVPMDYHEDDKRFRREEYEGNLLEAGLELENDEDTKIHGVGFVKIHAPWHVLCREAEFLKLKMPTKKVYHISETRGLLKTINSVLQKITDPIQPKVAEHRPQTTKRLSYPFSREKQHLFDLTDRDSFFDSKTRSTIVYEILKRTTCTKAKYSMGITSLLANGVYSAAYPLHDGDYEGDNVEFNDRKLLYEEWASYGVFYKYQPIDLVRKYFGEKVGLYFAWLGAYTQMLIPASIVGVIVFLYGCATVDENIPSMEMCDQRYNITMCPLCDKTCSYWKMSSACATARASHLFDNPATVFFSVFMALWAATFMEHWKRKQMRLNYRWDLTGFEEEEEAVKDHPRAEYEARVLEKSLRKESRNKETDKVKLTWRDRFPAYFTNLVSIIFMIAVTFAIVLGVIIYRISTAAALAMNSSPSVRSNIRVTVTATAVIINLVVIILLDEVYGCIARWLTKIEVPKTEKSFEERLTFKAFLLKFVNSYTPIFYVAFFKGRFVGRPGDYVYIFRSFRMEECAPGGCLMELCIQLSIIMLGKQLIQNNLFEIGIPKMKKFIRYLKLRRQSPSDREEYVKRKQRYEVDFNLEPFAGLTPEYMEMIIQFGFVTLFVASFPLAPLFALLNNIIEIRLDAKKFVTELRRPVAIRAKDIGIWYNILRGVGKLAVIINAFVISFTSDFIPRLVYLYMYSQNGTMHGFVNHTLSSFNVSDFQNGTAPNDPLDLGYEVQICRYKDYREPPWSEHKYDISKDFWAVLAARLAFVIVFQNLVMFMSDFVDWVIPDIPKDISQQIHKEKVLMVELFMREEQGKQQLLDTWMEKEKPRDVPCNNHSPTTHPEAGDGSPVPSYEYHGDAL
T5: itself; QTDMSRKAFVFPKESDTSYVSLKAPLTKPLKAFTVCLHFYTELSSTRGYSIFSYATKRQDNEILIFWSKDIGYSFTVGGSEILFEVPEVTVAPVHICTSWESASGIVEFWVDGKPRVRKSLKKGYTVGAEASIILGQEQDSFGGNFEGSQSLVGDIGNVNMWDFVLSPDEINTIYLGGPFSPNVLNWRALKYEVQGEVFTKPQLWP
B1: human bleomycin hydrolase; sequence looked up; chain MSSSGLNSEKVAALIQKLNSDPQFVLAQNVGTTHDLLDICLKRATVQRAQHVFQHAVPQEGKPITNQKSSGRCWIFSCLNVMRLPFMKKLNIEEFEFSQSYLFFWDKVERCYFFLSAFVDTAQRKEPEDGRLVQFLLMNPANDGGQWDMLVNIVEKYGVIPKKCFPESYTTEATRRMNDILNHKMREFCIRLRNLVHSGATKGEISATQDVMMEEIFRVVCICLGNPPETFTWEYRDKDKNYQKIGPITPLEFYREHVKPLFNMEDKICLVNDPRPQHKYNKLYTVEYLSNMVGGRKTLYNNQPIDFLKKMVAASIKDGEAVWFGCDVGKHFNSKLGLSDMNLYDHELVFGVSLKNMNKAERLTFGESLMTHAMTFTAVSEKDDQDGAFTKWRVENSWGEDHGHKGYLCMTDEWFSEYVYEVVVDRKHVPEEVLAVLEQEPIILPAWDPMGALAE
B2: kcsA (Streptomyces lividans, UniProt P0A334); chain MPPMLSGLLARLVKLLLGRHGSALHWRAAGAATVLLVIVLLAGSYLAVLAERGAPGAQLITYPRALWWSVETATTVGYGDLYPVTLWGRLVAVVVMVAGITSFGLVTAALATWFVGREQERRGHFVRHSEKAAEEAYTRTTRALHERFDRLERMLDDNRR
B3: serpin B12 (human); sequence looked up; chain MDSLVTANTKFCFDLFQEIGKDDRHKNIFFSPLSLSAALGMVRLGARSDSAHQIDEVLHFNEFSQNESKEPDPCLKSNKQKAGSLNNESGLVSCYFGQLLSKLDRIKTDYTLSIANRLYGEQEFPICQEYLDGVIQFYHTTIESVDFQKNPEKSRQEINFWVECQSQGKIKELFSKDAINAETVLVLVNAVYFKAKWETYFDHENTVDAPFCLNANENKSVKMMTQKGLYRIGFIEEVKAQILEMRYTKGKLSMFVLLPSHSKDNLKGLEELERKITYEKMVAWSSSENMSEESVVLSFPRFTLEDSYDLNSILQDMGITDIFDETRADLTGISPSPNLYLSKIIHKTFVEVDENGTQAAAATGAVVSERSLRSWVEFNANHPFLFFIRHNKTQTILFYGRVCSP
B4: aqpZ 1-231 (Escherichia coli, UniProt P60844); chain MFRKLAAECFGTFWLVFGGCGSAVLAAGFPELGIGFAGVALAFGLTVLTMAFAVGHISGGHFNPAVTIGLWAGGRFPAKEVVGYVIAQVVGGIVAAALLYLIASGKTGFDAAASGFASNGYGEHSPGGYSMLSALVVELVLSAGFLLVIHGATDKFAPAGFAPIAIGLALTLIHLISIPVTNTSVNPARSTAVAIFQGGWALEQLWFFWVVPIVGGIIGGLIYRTLLEKRD
B5: CRP pentamer (x, UniProt P02741); chain QTDMSRKAFVFPKESDTSYVSLKAPLTKPLKAFTVCLHFYTELSSTRGYSIFSYATKRQDNEILIFWSKDIGYSFTVGGSEILFEVPEVTVAPVHICTSWESASGIVEFWVDGKPRVRKSLKKGYTVGAEASIILGQEQDSFGGNFEGSQSLVGDIGNVNMWDFVLSPDEINTIYLGGPFSPNVLNWRALKYEVQGEVFTKPQLWP
Chain of UniProt Q04410 (whole entry, looked up): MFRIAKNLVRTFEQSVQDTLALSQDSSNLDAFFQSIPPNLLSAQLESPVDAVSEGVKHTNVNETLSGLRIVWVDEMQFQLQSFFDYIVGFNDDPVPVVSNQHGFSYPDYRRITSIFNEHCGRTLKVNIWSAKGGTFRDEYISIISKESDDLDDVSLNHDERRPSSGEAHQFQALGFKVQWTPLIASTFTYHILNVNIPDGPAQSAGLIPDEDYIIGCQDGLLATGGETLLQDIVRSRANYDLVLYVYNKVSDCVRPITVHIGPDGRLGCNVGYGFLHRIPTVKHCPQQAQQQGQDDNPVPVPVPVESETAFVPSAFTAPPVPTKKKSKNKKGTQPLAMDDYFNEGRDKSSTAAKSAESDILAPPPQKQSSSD
Chain of UniProt P13393 (whole entry, looked up): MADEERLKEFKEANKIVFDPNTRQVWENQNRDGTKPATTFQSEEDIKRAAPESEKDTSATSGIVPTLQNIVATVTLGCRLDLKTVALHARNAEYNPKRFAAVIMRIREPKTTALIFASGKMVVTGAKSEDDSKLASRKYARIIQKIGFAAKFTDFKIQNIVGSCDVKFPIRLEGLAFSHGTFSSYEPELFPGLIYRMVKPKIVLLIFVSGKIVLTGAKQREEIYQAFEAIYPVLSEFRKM
Chain of UniProt P61970 (whole entry, looked up): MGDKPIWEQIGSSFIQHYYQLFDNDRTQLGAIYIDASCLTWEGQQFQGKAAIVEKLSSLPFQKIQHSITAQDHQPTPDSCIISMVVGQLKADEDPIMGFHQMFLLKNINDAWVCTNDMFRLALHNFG
Chain of UniProt P26368 (whole entry, looked up): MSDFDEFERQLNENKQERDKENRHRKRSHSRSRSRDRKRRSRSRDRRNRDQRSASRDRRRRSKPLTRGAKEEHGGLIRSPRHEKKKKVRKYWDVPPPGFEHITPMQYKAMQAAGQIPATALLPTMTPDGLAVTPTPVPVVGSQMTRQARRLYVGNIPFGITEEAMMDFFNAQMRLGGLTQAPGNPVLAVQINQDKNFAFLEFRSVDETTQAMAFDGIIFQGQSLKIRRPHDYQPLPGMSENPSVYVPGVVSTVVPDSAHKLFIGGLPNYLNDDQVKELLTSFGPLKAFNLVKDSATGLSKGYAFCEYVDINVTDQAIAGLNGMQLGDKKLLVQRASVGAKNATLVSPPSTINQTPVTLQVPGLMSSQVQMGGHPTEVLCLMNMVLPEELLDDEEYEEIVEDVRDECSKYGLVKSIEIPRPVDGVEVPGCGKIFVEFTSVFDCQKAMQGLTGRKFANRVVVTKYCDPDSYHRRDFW

`ABCD3 (Homo sapiens, UniProt P28288)`: “subunits per oligomer” 2 (T1, itself; cryo-EM; added: phytanoyl-CoA).
For `ftsZ F224M (Spiroplasma melliferum)`, “subunits per oligomer” read 2 (itself; crystal structure; 10 mg/mL, added: GDP).
`glutamate decarboxylase holoenzyme, covalently bound PLP (Bacteroides fragilis)`: “subunits per oligomer” 4 (itself; native gel).
`B1 (human bleomycin hydrolase)`: “log2 fold change” -1.21 (CYB5R4 knockout human cells; PP4 interaction, 3xFLAG-PP4C IP-MS; concentration not given; relative to: CYB5R4 KO over parental).
`MyoF tail (Toxoplasma gondii)` — result for “subunits per oligomer”: greater than 6 (itself; SEC).
`popZ (Caulobacter crescentus)` — result for “subunits per oligomer”: 12 and 18 (itself; mass photometry).
`ERF fragment (Homo sapiens)`: “subunits per oligomer” 2 (itself; crystal structure; reduced, added: DNA).
`KL fragment (Homo sapiens)`: “subunits per oligomer” 2 (itself; SEC).
`aspartyl-tRNA synthetase (Entamoeba histolytica)`: “subunits per oligomer” 2 (itself; crystal structure).
`B2 (kcsA)` — result for “subunits per oligomer”: 4 (T2, itself; SDS-PAGE).
`B3 (serpin B12)`: “log2 fold change” 0.42 (PP6C (human); co-immunoprecipitation, IP-MS; CYB5R4 knockout cells; concentration not given; relative to: CYB5R4 knockout over parental).
For `hfq fragment R16A, dansyl label (Escherichia coli)`, “subunits per oligomer” read 6 (itself; native gel).
Under “subunits per oligomer”, `MXAN_1565 GAF-AAA+ domains (Myxococcus xanthus)` is recorded as 2 (itself; cryo-EM).
Under “subunits per oligomer”, `CAMK2D full length holoenzyme (Homo sapiens)` is recorded as 12 (itself; mass photometry).
For `sodN mature H1A (Streptomyces coelicolor)`, “subunits per oligomer” read 6 (itself; SEC).
`DMD fragment (Homo sapiens)`: “subunits per oligomer” 2 (itself; SEC-MALS).
`DNMT3L/sfGFP fusion (Homo sapiens)` — result for “subunits per oligomer”: 2 (itself; mass photometry).
Under “subunits per oligomer”, `CAMK2D C399R/H439R (Homo sapiens)` is recorded as 6 (itself; mass photometry).
For `Cap10 (Rhizobiales)`, “subunits per oligomer” read 2 (itself; crystal structure).
`sodN mature E17R/R47E (Streptomyces coelicolor)` — result for “subunits per oligomer”: 6 and 3 (itself; SEC).
`CRYAB αB-crystallin del54-61 (Homo sapiens)` — result for “subunits per oligomer”: 20 subunits (itself; SEC-MALS).
`SULT2A1 fragment (Homo sapiens)` — result for “subunits per oligomer”: 2 (itself; SEC).
`eutT ATP:Co(I)rrinoid adenosyltransferase (Listeria monocytogenes)`: “subunits per oligomer” 4 (itself; SEC).
Under “subunits per oligomer”, `NUTF2 EGFP fusion (Homo sapiens, UniProt P61970)` is recorded as 2 (itself; fluorescence fluctuation spectroscopy; brightness).
`sarcolamban 33 aa peptide (Daphnia pulex)` — result for “subunits per oligomer”: 4 (itself; SDS-PAGE).
Under “subunits per oligomer”, `Gl2 bHLH domain (Gossypium hirsutum)` is recorded as 4 (itself; SEC-MALS).
`Diaph1 FH1-FH2-C, SNAP-surface-649 dye label (Mus musculus)` — result for “subunits per oligomer”: 2 (itself; single-molecule photobleaching step counting).
Under “subunits per oligomer”, `B4 (aqpZ 1-231)` is recorded as 4 (T3, itself; native MS).
`popZ fragment (Caulobacter crescentus)`: “subunits per oligomer” 6 (itself; AUC; 25 °C).
With `UGUUUUCAG (ssRNA)` the Kd was 2600 nM (U2AF2 148-342 (Homo sapiens, UniProt P26368); sequencing of bound RNA; RNA; motif only).
`TCCTGAAGGGACGCCCTAGCTTGGTCCTATCGTCGTCAAGTCAATCGGTCC (dsDNA; 5'-amino-C6 primer)` has a Kd of 4.23 ± 0.33 nM (SPT15 full length assumed (Saccharomyces cerevisiae, UniProt P13393); array; double-stranded DNA, one strand shown; TBP alone).
`LECA (Pisum sativum)`: “subunits per oligomer” 2 (itself; SAXS; 40 °C).
For `UDP-2,3-diacylglucosamine hydrolase (Caulobacter crescentus)`, “subunits per oligomer” read 2 (itself; sedimentation equilibrium AUC).
`NPM1 T46R (Homo sapiens)` — result for “subunits per oligomer”: 2 (itself; SEC-MALS).
`gene 82 (mycobacteriophage)`: “subunits per oligomer” 3 (itself; crystal structure).
`ccmK2 fragment H75N (Synechococcus elongatus)` — result for “subunits per oligomer”: 6 (itself; SEC).
Under “subunits per oligomer”, `cyclase-phosphotriesterase fragment (Ruegeria pomeroyi)` is recorded as 10 (itself; X-ray crystallography).
For `Ano1 (Mus musculus, UniProt Q8BHY3)`, “subunits per oligomer” read 2 (T4, itself; cryo-EM).
For `MBP/MGM101 fragment (Saccharomyces cerevisiae)`, “subunits per oligomer” read 19 (itself; mass photometry; uncleaved fusion protein, no DNA).
For `Grh1, N-terminal acetylation (yeast, UniProt Q04410)`, “subunits per oligomer” read 2 (itself; dynamic light scattering).
Under “subunits per oligomer”, `clcA fragment C85A/H234C/L406A/I409A/I410A/L413A (Escherichia coli)` is recorded as 2 (itself; SEC).
`comFB (Treponema denticola)` — result for “subunits per oligomer”: 2 (itself; SEC-MALS).
Under “subunits per oligomer”, `yjoB fragment (Bacillus subtilis)` is recorded as 12 (itself; crystal structure).
For `tas3 fragment (Schizosaccharomyces pombe)`, “subunits per oligomer” read 3 (itself; SEC).
`B5 (CRP pentamer)`: “subunits per oligomer” 5 (T5, itself; cryo-EM).
For `SIR2 (Paenibacillus sp.)`, “subunits per oligomer” read 12 (itself; AUC).

Excerpt of the above:
`SULT2A1 fragment (Homo sapiens)` — result for “subunits per oligomer”: 2 (itself; SEC).
For `UDP-2,3-diacylglucosamine hydrolase (Caulobacter crescentus)`, “subunits per oligomer” read 2 (itself; sedimentation equilibrium AUC).
`popZ (Caulobacter crescentus)` — result for “subunits per oligomer”: 12 and 18 (itself; mass photometry).
For `Ano1 (Mus musculus, UniProt Q8BHY3)`, “subunits per oligomer” read 2 (T4, itself; cryo-EM).
`ccmK2 fragment H75N (Synechococcus elongatus)` — result for “subunits per oligomer”: 6 (itself; SEC).
`popZ fragment (Caulobacter crescentus)`: “subunits per oligomer” 6 (itself; AUC; 25 °C).
